Experimental data of several laboratories.
Values joined by “and” are separate records of one study, mostly repeats; a detail may differ.

Structure (SMILES)	cell line	test	test system	conditions	IC50
Cc1nc(Nc2ccc3c(c2)/C(=C/c2ccccc2Cl)C(=O)N3C)c2ccccc2n1	B16	cell growth or viability, MTT			3090 nM
C=CC(=O)Nc1cc(Nc2nccc(-c3cn(C)c4ccccc34)n2)c(OC)cc1N(C)CCN(C)C	Ba/F3 EGFR 19Del BBT-176-resistant BR1	cell growth		72 h	1.7 nM
Cc1cc(N)n(-c2ccc(Oc3ccccc3)c(S(=O)(=O)O)c2)n1	HEK293 AP-1-luc cells	reporter gene		24 h, 20% serum	50 nM
Cc1cc(C)[nH]n1	BEAS-2B	cell growth or viability, MTT		24 h	> 800000 nM
CCCC(CCC)C(=O)[O][Pt]([NH2])([NH2])([Cl])([Cl])[O]C(C)=O	PSN1	cell growth or viability, MTT		72 h	2610 nM
C=CC(=O)N1CC2C(=O)N(CCN(C)C)c3c(c4cc(Cl)c(-c5c(O)cccc5F)nc4n(-c4c(C)ccnc4C(C)C)c3=O)N2CC1C (stereo not drawn)	SW837	cell growth or viability			7.96 nM
O=[P@]1(c2ccccc2)CC[C@@H](O)CC1	SW-620	cell growth or viability, MTT		72 h	> 100000 nM
CN1CCC(N[C@H]2CCc3[nH]c4c(C(N)=O)ccc(-c5ccccc5Cl)c4c3C2)CC1	MX1	cell growth or viability			1200 nM
CNS(=O)(=O)Nc1nccc(Cc2c(C)c3ccc(Oc4ncccc4F)cc3oc2=O)c1F	Yamato-SS	cell viability, CellTiter-Glo		7 days	92.3 nM
CCn1nc(Cl)c2c1-c1cnc(N)c(c1)O[C@H](C)c1cc(F)ccc1-c1nn(C)cc1C2	NCI-H2228 (EML4-ALK variant 3)	cell viability			< 0.645 nM
CCc1c(-c2ccc3[nH]ncc3c2)cnc(N)c1-c1ccc(O)cc1	CHP-212 parental	cell viability, SRB			13200 nM and 14200 nM and 14000 nM
Cc1ccc([N+](=O)[O-])cc1S(=O)(=O)N(C)/N=C/c1cnc2ccc(Br)cn12	OVCAR-4	cell viability, MTS			403 nM
C1=[N+]2CCCC[N+]3=Cc4ccc5[n]4[Au-]23[n]2c1ccc2-c1nc2ccccc2nc1-5.F[P-](F)(F)(F)(F)F	786-0 renal cancer	cell growth			4000 nM
O=C1/C(=N\c2ccc(Cl)cc2Br)c2ccccc2N1C(=O)c1ccccc1	B16	cell growth or viability, MTT		48 h	> 100000 nM
CCOc1cncc(-c2ccc(NC(=O)C3(c4ccnc(NS(=O)(=O)C5CC5)n4)CCOCC3)nc2)n1	renal cancer	cell viability, CellTiter-Glo	DMSO 0.1%	72 h, line code 486	73 nM
NC(=O)c1ccc(-c2ccccc2Cl)c2c3c([nH]c12)CC[C@H](N)C3	A549/DDP, cisplatin-resistant	cell growth, CellTiter-Glo		96 h	45 nM
Cc1ccccc1Nc1c(C2CN(C(=O)OC(C)(C)C)C2)nc2c(Br)c(F)ccn12	UMRC2				2800 nM

Structure (SMILES)	cell line	test	test system	conditions	IC50
Nc1nnc(-c2ccccc2O)cc1N1CC2CCC(C1)N2c1ccnc(C#CCCN2CCCCCC2)c1	VCaP	cell growth or viability, ATP luminescence		7 days	35.9 nM
O=C(CCc1ccco1)N1C(=O)C2(NC(c3ccc(F)cc3)C3(C(=O)Nc4ccccc43)N2Cc2ccc(F)cc2)c2ccccc21 (stereo not drawn)	B16	cell growth or viability, MTT		48 h	33800 nM
COc1ccccc1/C=C1\C(=O)N(C)c2ccc(Nc3nc(C)nc4ccccc34)cc21	B16	cell growth or viability, MTT			4140 nM
CCc1ccc(/N=C2\C(=O)N(Cc3ccc([N+](=O)[O-])cc3)c3ccccc32)cc1	B16	cell growth or viability, MTT		48 h	3250 nM
Cc1cc(NC(=O)C(=O)N2C[C@@H](C)CC[C@@H]2c2ccc3scnc3c2)cnc1N	MTAP-null HAP1 or LN-18	cell viability		7 days	100 to 200 nM
Cc1nc(CN(C)c2ncnc3c2cnn3CCO)cs1	CHO	cytotoxicity, MTT			> 50000 nM
Cn1ncc(-c2ccc3c(=O)[nH]nc(CN)c3c2)c1-c1c(F)c(Cl)cc(OC2CC2)c1C#N	Li-7	cell viability, CellTiter-Glo		120 h	230 nM
Cc1nc(N(C)c2ccc3c(c2)/C(=C/c2cn(C)c4ccccc24)C(=O)N3C)c2ccccc2n1	B16	cell growth or viability, MTT			2230 nM
CC(C)(C)c1nc(-c2cccc(NS(=O)(=O)c3c(F)cccc3F)c2F)c(-c2ccnc(N)n2)s1.Cc1[nH]c2ccccc2c1CCNCc1ccc(/C=C/C(=O)NO)cc1	A2780C/P	cell growth or viability, crystal violet		48 h	16.9 nM
CC(C)c1ccc(N(C)c2ccc3c(c2)OCC[C@H]3CNc2cnccc2C(=O)O)cc1	NCI-H1836	cell growth or viability, ATP luminescence		7 days	6.07 nM
Cc1nc(N(C)c2ccc3c(c2)/C(=C/c2ccccc2C)C(=O)N3C)c2ccccc2n1	B16	cell growth or viability, MTT			1540 nM
Cc1cc(C)n(CO)n1	BEAS-2B	cell growth or viability, MTT		24 h	> 800000 nM
O=C(NCc1cc(F)cc(F)c1)[C@@]1(O)CCN(c2ccc3[nH]ccc3c2)C1=O	SW872 liposarcoma	cell proliferation, BrdU incorporation			25000 nM
O=C1/C(=N\c2ccc(Cl)cc2)c2ccccc2N1Cc1ccccc1	B16	cell growth or viability, MTT		48 h	1990 nM
CSCC[C@H](NC(=O)[C@H](CCCCN)NC(=O)[C@H](CCCNC(=N)N)NC(=O)[C@H](CO)NC(=O)[C@H](Cc1c[nH]c2ccccc12)NC(=O)[C@H](CCCNC(=N)N)NC(=O)[C@H](CC(C)C)NC(=O)CN)C(=O)N1CCC[C@H]1C(=O)N[C@@H](CS)C(=O)N[C@H](C(=O)N[C@@H](CO)C(=O)O)C(C)C	SUP-T1	Erk phosphorylation, inhibitor, phospho flow cytometry		with: CXCL12 100 ng/mL	> 100000 nM
C=CC(=O)N1CCCC(n2c(=O)c3ncccc3n(Cc3ccc(Oc4ccccc4)cc3)c2=O)C1 (stereo not drawn)	Z-138	cell growth or viability, MTT		72 h	20000 nM

Repeated from above:
Structure (SMILES)	cell line	test	test system	conditions	IC50
Cc1nc(CN(C)c2ncnc3c2cnn3CCO)cs1	CHO	cytotoxicity, MTT			> 50000 nM
Cn1ncc(-c2ccc3c(=O)[nH]nc(CN)c3c2)c1-c1c(F)c(Cl)cc(OC2CC2)c1C#N	Li-7	cell viability, CellTiter-Glo		120 h	230 nM
Cc1nc(N(C)c2ccc3c(c2)/C(=C/c2cn(C)c4ccccc24)C(=O)N3C)c2ccccc2n1	B16	cell growth or viability, MTT			2230 nM
